# Assay results from different studies.
# Numbers after ± are the reported error.
Compound,method,host,sample,route,dose,setting,half-life
C/C(=N\OCCCN1CCCCC1)c1ccc(C(F)(F)F)cc1,,C57BL/6 mouse,,oral,10 mg/kg,,4.27 ± 0.67 h
Cc1cccc2c1NC(=O)C2=Cc1ccc(-c2cccc(C(=O)N3CCCN(C)CC3)c2)o1 (mixture of isomers),,mouse,,oral,,,4.9 h
Cc1ccc(NS(=O)(=O)c2c(C(=O)N3CCCCCC3)c(C)n(C)c2C)c(Cl)c1,,"ICR mouse, male",plasma,oral,dose not given,,1.85 h
CCCCCCCCCCCCCCCC(=O)NCCCC[C@H](NC(=O)[C@H](CCCCN)NC(=O)[C@H](CCCCN)NC(=O)[C@@H]1CCCN1C(=O)CNC(=O)[C@H](CC(C)C)NC(=O)[C@H](CC(C)C)NC(=O)[C@H](Cc1ccc(O)cc1)NC(=O)CNC(=O)[C@H](C)NC(=O)[C@H](CO)NC(=O)[C@H](CC(N)=O)NC(=O)[C@H](CC(C)C)NC(=O)[C@@H](NC(=O)[C@H](Cc1c[nH]c2ccccc12)NC(=O)CNC)[C@@H](C)O)C(=O)N[C@@H](CCCCN)C(N)=O,,CF-1 mouse,plasma,intraperitoneal,2 mg/kg,,2 h
CC(C)(CCCC/C=C/CCCCCC(C)(C)C(=O)O)C(=O)O,,ICR mouse,plasma,oral,10 mg/kg,,3.79 h
COCC[C@H](NC(=O)[C@H](CC(C)C)N(C)C(=O)CNC(=O)[C@@H](NC(=O)[C@H](Cc1ccc(O)cc1)NC(=O)[C@H](CCCCNC(=O)COCCOCCNC(=O)COCCOCCNC(=O)CC[C@H](NC(=O)CCCCCCCCCCCCCCCCC(=O)O)C(=O)O)NC(=O)[C@@H](N)CC(=O)O)C(C)C)C(N)=O,LC-MS,lean mouse,plasma,subcutaneous,325 nmol/kg,,10.3 h
CC(C)C[C@@H]1NC(=O)[C@H](CCCNC(=N)N)NC(=O)[C@H](CCCCN)NC(=O)[C@H](CC(=O)O)NC(=O)[C@H](CCCCN)NC(=O)[C@@H](CO)NC1=O,,mouse,serum,intraperitoneal,10 µg/g,,~0.567 h
CCCCCCCCCCCCCCCC(=O)NCCCC[C@H](NC(=O)[C@H](CCCNC(=N)N)NC(=O)[C@H](Cc1ccc(O)cc1)NC(=O)[C@H](CC(C)C)NC(=O)[C@H](CCCNC(=N)N)NC(=O)CNS(=O)(=O)c1ccc(N)cc1)C(N)=O,,ICR mouse,plasma,intraperitoneal,4 mg/kg,,2.35 h
CCCCCCCC/C=C\CCCCCCCCOP(O)(O)=S.N,,"mouse, female, irradiated",,sc,dose not given,"15.6 Gy partial-body, dosed 24 h after",1.36 h
CC(C)C[C@@H](/C=C/CC(=O)NC1CC(C)(C)N([O])C(C)(C)C1)NC(=O)OC(C)(C)C,,"mouse C57BL/6NHsd, female",blood,,,,0.0833 h
O=C[C@H](C[C@@H]1CCNC1=O)NC(=O)[C@H](Cc1cccc(F)c1)NC(=O)c1cc2ccccc2[nH]1,,mouse,,intravenous,5 mg/kg,,1.65 h

# Repeated from above:
Compound,method,host,sample,route,dose,setting,half-life
COCC[C@H](NC(=O)[C@H](CC(C)C)N(C)C(=O)CNC(=O)[C@@H](NC(=O)[C@H](Cc1ccc(O)cc1)NC(=O)[C@H](CCCCNC(=O)COCCOCCNC(=O)COCCOCCNC(=O)CC[C@H](NC(=O)CCCCCCCCCCCCCCCCC(=O)O)C(=O)O)NC(=O)[C@@H](N)CC(=O)O)C(C)C)C(N)=O,LC-MS,lean mouse,plasma,subcutaneous,325 nmol/kg,,10.3 h
